Published values of several laboratories.
Compare with care: the assays were run in different laboratories. Where no end group is shown, it is not given here. [ ]: non-standard residue; d: D form. The star is where a group is joined.
B1: UGT1A9 (Homo sapiens, UniProt O60656); chain GKLLVVPMDGSHWFTMRSVVEKLILRGHEVVVVMPEVSWQLGRSLNCTVKTYSTSYTLEDLDREFKAFAHAQWKAQVRSIYSLLMGSYNDIFDLFFSNCRSLFKDKKLVEYLKESSFDAVFLDPFDNCGLIVAKYFSLPSVVFARGILCHYLEEGAQCPAPLSYVPRILLGFSDAMTFKERVRNHIMHLEEHLLCHRFFKNALEIASEILQTPVTEYDLYSHTSIWLLRTDFVLDYPKPVMPNMIFIGGINCHQGKPLPMEFEAYINASGEHGIVVFSLGSMVSEIPEKKAMAIADALGKIPQTVLWRYTGTRPSNLANNTILVKWLPQNDLLGHPMTRAFITHAGSHGVYESICNGVPMVMMPLFGDQMDNAKRMETKGAGVTLNVLEMTSEDLENALKAVINDKSYKENIMRLSSLHKDRPVEPLDLAVFWVEFVMRHKGAPHLRPAAHDLTWYQYHSLDVIGFLLAVVLTVAFITFKCCAYGYRKCLGKKGRVKKAHKSKTH

Substance	target or system	test	test system	conditions	scale	endpoint	result
C/C(=N\N=C1/NC(=O)C(C)S1)c1ccccn1 (stereo not shown)	HEp-2	cell growth or viability, SRB		100 µg/mL, 48 h		inhibition	71.7%
COc1cc(N2CCC(N3CCN(C)CC3)CC2)ccc1Nc1ncc(Cl)c(Nc2ccccc2S(=O)(=O)C(C)C)n1	NIH3T3 in SKOV/NIH microtissues	fibroblast toxicity		168 h, chronic toxicity, unit not given	relative to: AC50 ATP over AC50 NanoLUC, day 7	therapeutic window	1.44
Transferrin	INS-832/13 rat insulinoma cells	apoptosis, measured: cleaved caspase-3/actin		400 nM, 48 h, added: adenoviral prepro-hIAPP-GFP overexpression		cleaved caspase-3 level	no effect
[Aib]VIA (Aib = CC(C)(N)C(=O)O)	PC-12	protection from Aβ1–42 toxicity, MTT		concentration not given, 6 h, Aβ to peptide ratio 1:5, added: Aβ1–42 2 µM	relative to: untreated cells	cell viability	72.7%
COc1ccc(C[C@]2(O)COc3cc(O)cc(O)c3C2=O)cc1	92-1 uveal melanoma cells	alamarBlue		48 h		GI50	> 100000 nM
amyloid-β42 oligomers	U-251	ELISA		concentration not given, 24 h		ApoE secretion	inhibited
CCCCNNC(=O)c1ccc(Br)cc1	NCI60 panel					GI50	2940 nM
N[C@@H]1[C@H]2CN(c3nc4c(cc3F)c(=O)c(C(=O)O)cn4-c3ccc(F)cc3F)C[C@@H]12	human podocytes	RT-PCR or Western blot, measured: VEGF-A165b and VEGF-A165a	normal glucose	10 µM, 48 h		VEGF-A165b/VEGF-A165a ratio	2.48
VV[dF]A (D-Phe3)	PC-12	protection from Aβ1–42 toxicity, MTT		concentration not given, 6 h, Aβ to peptide ratio 1:10, added: Aβ1–42 2 µM	relative to: untreated cells	cell viability	72.7%
COc1ccc2c(c1)CC[C@@H]1[C@@H]2CC[C@]2(C)[C@@H](NCCCCCCN3C(=O)C=CC3=O)CC[C@@H]12	NCI-H838	inhibitor, measured: cytosolic Ca2+		50 µM, added: PACAP-27 100 nM		PACAP-27-induced Ca2+ increase	inhibited
VV[Aib]A (Aib3; Aib = CC(C)(N)C(=O)O)	PC-12	protection from Aβ1–42 toxicity, MTT		concentration not given, 6 h, Aβ to peptide ratio 1:10, added: Aβ1–42 2 µM	relative to: untreated cells	cell viability	73.3%
CCn1c(-c2ccccc2)cs/c1=N/N=C(\C)c1ccccn1	HEp-2	cell growth or viability, SRB		100 µg/mL, 48 h		inhibition	68.1%
CNC[C@H](O)c1cccc(O)c1	hiPSC-derived 3D engineered cardiac tissue	contractility	serum-free medium	concentration not given, 15 min, paced at 1 Hz	relative to: time-matched vehicle	active force	increased
C[C@]12CC[C@@H]3c4ccc(O)cc4CC[C@H]3[C@@H]1CC[C@@]2(O)/C=C/c1ccccc1	Ishikawa	alkaline phosphatase induction, agonist		concentration not given, 3 d	relative to: estradiol	relative stimulatory activity	9.4%
Nc1ccc(-c2ccc3ncc4ccc(=O)n(-c5cccc(C(F)(F)F)c5)c4c3c2)cn1	NIH3T3 in HEY/NIH microtissues	fibroblast toxicity		chronic toxicity, unit not given	relative to: AC50 ATP over AC50 NanoLUC, day 7	therapeutic window	2.22
V[dV]IA (D-Val2)	PC-12	protection from Aβ1–42 toxicity, MTT		concentration not given, 6 h, Aβ to peptide ratio 1:5, added: Aβ1–42 2 µM	relative to: untreated cells	cell viability	70%
C#C[C@@]1(O)[C@@H](CO)O[C@@H](n2cc(I)c3c(N)ncnc32)[C@@H]1O	U-251	cell growth or viability, SRB		48 h		GI50	74 nM
CCN(CC)CCNC(=O)c1c(C)[nH]c(/C=C2\C(=O)Nc3ccc(F)cc32)c1C	NIH3T3 in HEY/NIH microtissues	fibroblast toxicity		168 h, chronic toxicity, unit not given	relative to: AC50 ATP over AC50 NanoLUC, day 7	therapeutic window	0.023
CC[C@@H](C)[C@@H](NC(=O)[C@@H](NC(=O)[C@@H](N)C(C)C)C(C)C)C(=O)N[C@@H](C)C(N)=O	PC-12	Aβ42-induced neurotoxicity, inhibitor, MTT		concentration not given, 6 h, 37 °C, peptide to Aβ42 1:2, added: Aβ42 2 µM	relative to: untreated cells	viability	76.5%

Substance	target or system	test	test system	conditions	scale	endpoint	result
COc1ccc2c3c(c4cc(OC)c(OC)cc4c2c1)C[C@H]1CCCN1C3	CL1-5	RT-PCR, Western blot, measured: Cdt1, CDC6		0.01 µg/mL, 24 and 48 h		Cdt1 and CDC6 levels	increased
ANKHYF	B16-F10		peptide	2 µg coated per well, 30 to 60 min	relative to: thrombospondin-coated wells	adherent cells	8%
5FAM-KKSRRC(Farnesyl)VLS (N-5-FAM, S-farnesyl-Cys; 5FAM = O=C1OC2(c3ccc(O)cc3Oc3cc(O)ccc32)c2ccc(C(=O)*)cc21; Farnesyl = CC(C)=CCC/C(C)=C/CC/C(C)=C/C*)	COS-1	flow cytometry		1 µM, 2 h, added: rotenone 12 µM and 2-deoxyglucose 15 mM	relative to: normal ATP conditions	cellular uptake	no effect
AKHRERMSQVM	A-1 fibroblasts	cell number increase	peptide	concentration not given, 3 d, 10% FCS	relative to: basal increase	growth-promoting activity	active
COc1cc(OC)c(OC)cc1C=NNc1nc(-c2ccc(C#N)cc2)cs1	HCT-116	colony formation		5 µM, 24 h		inhibition	5 to 50%
VV[dV]A (D-Val3)	PC-12	protection from Aβ1–42 toxicity, MTT		concentration not given, 6 h, Aβ to peptide ratio 1:1, added: Aβ1–42 2 µM	relative to: untreated cells	cell viability	70%
B1 (UGT1A9)	Cc1ccc(O)cc1	steady-state kinetics		pH 7.4, 37 °C		Km	57.3 µM
C/C(=N\NC(N)=S)c1ccccn1	HEp-2	cell proliferation, SRB		100 µg/mL, 48 h		inhibition	> 75%
CC(=O)Oc1ccccc1C(=O)O	hiPSC-derived 3D engineered cardiac tissue	contractility	serum-free medium	concentration not given, 15 min, paced at 1 Hz	relative to: time-matched vehicle	active force	no effect
CC(C)C[C@H](NC(=O)[C@H](CCc1ccccc1)NC(=O)CN1CCOCC1)C(=O)N[C@@H](Cc1ccccc1)C(=O)N[C@@H](CC(C)C)C(=O)[C@@]1(C)CO1	NIH3T3 in SKOV/NIH microtissues	fibroblast toxicity		168 h, chronic toxicity, unit not given	relative to: AC50 ATP over AC50 NanoLUC, day 7	therapeutic window	10.1
Cc1ccc(-c2cn3cc(C)ccc3n2)cc1	human pluripotent stem cells	MTT		low nanomolar, 7 days, single cell expansion	relative to: Y-27632 (ROCK inhibitor)	viability	≤ 4 fold
Cn1c(=O)c(F)c(Nc2ccc(I)cc2F)c2c(=O)n(C[C@@H](O)CO)cnc21	NIH3T3 in HEY/NIH microtissues	fibroblast toxicity		168 h, chronic toxicity, unit not given	relative to: AC50 ATP over AC50 NanoLUC, day 7	therapeutic window	162
V[dA]IA (D-Ala2)	PC-12	protection from Aβ1–42 toxicity, MTT		concentration not given, 6 h, Aβ to peptide ratio 1:1, added: Aβ1–42 2 µM	relative to: untreated cells	cell viability	70%
CC(=O)c1s/c(=N/N=C(\C)c2ccccn2)[nH]c1C	HEp-2	cell growth or viability, SRB		100 µg/mL, 48 h		inhibition	70.1%
VVI[dF] (D-Phe4)	PC-12	protection from Aβ1–42 toxicity, MTT		concentration not given, 6 h, Aβ to peptide ratio 1:10, added: Aβ1–42 2 µM	relative to: untreated cells	cell viability	71.2%
N[C@@H](Cc1cc(I)c(Oc2ccc(O)c(I)c2)c(I)c1)C(=O)O	iPSC-derived intestinal progenitor cells	measured: ISX		concentration not given	relative to: DMSO	mRNA level	increased
CCC(C)n1ncn(-c2ccc(N3CCN(c4ccc(OCC5COC(Cn6cncn6)(c6ccc(Cl)cc6Cl)O5)cc4)CC3)cc2)c1=O (stereo not shown)	hiPSC-derived 3D engineered cardiac tissue	contractility	serum-free medium	concentration not given, 15 min, paced at 1 Hz	relative to: time-matched vehicle	active force	decreased
VV[dP]A (D-Pro3)	PC-12	protection from Aβ1–42 toxicity, MTT		concentration not given, 6 h, Aβ to peptide ratio 1:10, added: Aβ1–42 2 µM	relative to: untreated cells	cell viability	76.3%

Some of these lines once more:
Substance	target or system	test	test system	conditions	scale	endpoint	result
CC[C@@H](C)[C@@H](NC(=O)[C@@H](NC(=O)[C@@H](N)C(C)C)C(C)C)C(=O)N[C@@H](C)C(N)=O	PC-12	Aβ42-induced neurotoxicity, inhibitor, MTT		concentration not given, 6 h, 37 °C, peptide to Aβ42 1:2, added: Aβ42 2 µM	relative to: untreated cells	viability	76.5%
VV[Aib]A (Aib3; Aib = CC(C)(N)C(=O)O)	PC-12	protection from Aβ1–42 toxicity, MTT		concentration not given, 6 h, Aβ to peptide ratio 1:10, added: Aβ1–42 2 µM	relative to: untreated cells	cell viability	73.3%
C/C(=N\N=C1/NC(=O)C(C)S1)c1ccccn1 (stereo not shown)	HEp-2	cell growth or viability, SRB		100 µg/mL, 48 h		inhibition	71.7%
N[C@@H]1[C@H]2CN(c3nc4c(cc3F)c(=O)c(C(=O)O)cn4-c3ccc(F)cc3F)C[C@@H]12	human podocytes	RT-PCR or Western blot, measured: VEGF-A165b and VEGF-A165a	normal glucose	10 µM, 48 h		VEGF-A165b/VEGF-A165a ratio	2.48
COc1cc(OC)c(OC)cc1C=NNc1nc(-c2ccc(C#N)cc2)cs1	HCT-116	colony formation		5 µM, 24 h		inhibition	5 to 50%
COc1cc(N2CCC(N3CCN(C)CC3)CC2)ccc1Nc1ncc(Cl)c(Nc2ccccc2S(=O)(=O)C(C)C)n1	NIH3T3 in SKOV/NIH microtissues	fibroblast toxicity		168 h, chronic toxicity, unit not given	relative to: AC50 ATP over AC50 NanoLUC, day 7	therapeutic window	1.44
